# Published values gathered from unrelated publications.
# Every numbered part comes from another study and shows a few of its results, in no order. Changes are numbered by the printed parent chain.

# Series 1
# Target: RNA binding protein fox-1 homolog 2, RRM domain, GST-SBP tag (RBFOX2, Homo sapiens, UniProt O43251-10, residues 100-194)
# Technique: RNA Bind-n-Seq
# Molecule type: RNA
# Matrix: in vitro
# Tested at: 365 nM
# Notes: natural RNA segment, single round, ends assumed
# Reference: no-protein control
# Direction: higher = stronger binding
# Constant ends, left off below: GGGAGUUCUACAGUCCGACGAUC … UGGAAUUCUCGGGUGCCAA
# Construct (chain): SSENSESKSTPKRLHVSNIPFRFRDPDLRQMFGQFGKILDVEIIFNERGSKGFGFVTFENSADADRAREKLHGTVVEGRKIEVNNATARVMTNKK
Sequence,RBNS enrichment (R)
AGAAAUAGUAAACUUGCAGCUGCCCCUAAUGCAGCAUAUUUUUCUUACCAAAGGAGUCUUCAGCCCUAUAAAAGGAUUCCUCUAUAGUGUAUUUCUCUAGUGUAUUUAGU,0.651
CUUUGAUCUUUUUGUCCAAGAAAAGGAAUGUCUGACAGGCUUAAGCUUUCGUCCCCUUGCACUUAGACUCGAAGUUAGUAAAUCCUUAAAGGCUUUUUAAUAGCAGACUU,0.406
UAAAAUAAAAUGAAAGAAACUUGCUUCCCUUAGCCUUUGUUCUAGAAAAUAAACUUGUGCACUUUGACCUCUGUCCCCGAGAUGUCACUCCUGUUCCUCCCCACCUGGUA,0.652
UGACUCUAAUAGGACUGUAUAUACUGUUUUAAGAAUGGGCUGAAAUCAGAAUGCCUGUUUGUGGUUUCAUAUGCAAUAAUAUAUUUUUUUAAAAAUGUGGACUUCAUAGG,2.02
CGUUUCUCAGGAAGUAGUCCCUUAACCAAAACGUCUCUGAGAAGUGAUGCUUAGGUAAUCUCUGGGAUCCGAUUUUCCCACAUGUCUCACUCCACAGUAUGCUAAAGAAG,0.257
UGUGGUAGAGUCUGGGACCAACUCAAAAACGGAACAAGGAGUGAUGAUGUAUGAACACAAAACCCAAUAAAAAUCUUUGAAUAGGAGCCUGGAAGCUCAAGAAGAAAAUG,0.961
AUGUUGCGUGUGUCUGUCUGUGAGCCUUUCACACCUGUGCUGGCGCUGGAAAAUUAUUUGUGCUCAGCUGACAUUUAACACUCCCUCCCCCGCUUCCUCCUAGCCCUGUG,0.678
UGAGAAGUUUUCCGGUAGAGUUGGAAAUCAGUUGUGAAUACAUUCUUUGCUAGUUGGAGUGCUUGUUUACUAAGCAUGUGCCGUCGUAGGUAUUAGUGCUAGUCUCAGAU,2.68

# Series 2
# Target: CCND2, cyclin fold, Cln2 fusion (human)
# Technique: yeast growth competition, sequencing
# Matrix: yeast
# Notes: weak parent motif
# Reference: not given
# Direction: higher = stronger binding
# Parent: CDKN1B docking peptide (human); PSACRNLFGPVDH
Change,normalised enrichment score
V11F,0.207
G9T,0.22
D12Q,0.416
S2C,-0.0111
F8C,-0.188
G9C,0.249
F8I,0.434
D12R,0.215

# Series 3
# Target: CREB3L4, bZIP domain (human)
# Technique: DHFR protein complementation
# Matrix: yeast
# Notes: single substitutions, most at no-binding floor
# Reference: wild-type JUN-FOS pair
# Direction: higher = stronger binding
# Parent: JUN, bZIP domain (human); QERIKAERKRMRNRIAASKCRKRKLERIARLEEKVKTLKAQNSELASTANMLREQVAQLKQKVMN; partner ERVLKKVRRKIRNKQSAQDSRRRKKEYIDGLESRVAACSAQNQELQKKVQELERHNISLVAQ
Change,binding fitness [natural log]
V35R,-1.53
E32T,-1.44
T48M,-1.28
R53T,-1.48
N42D,-1.43
T37C,-1.15
K34D,-1.49
L31N,-1.62

# Single results of other studies
# Parent: PafA, mature enzyme, eGFP fusion (Elizabethkingia meningoseptica, UniProt Q9KJX5); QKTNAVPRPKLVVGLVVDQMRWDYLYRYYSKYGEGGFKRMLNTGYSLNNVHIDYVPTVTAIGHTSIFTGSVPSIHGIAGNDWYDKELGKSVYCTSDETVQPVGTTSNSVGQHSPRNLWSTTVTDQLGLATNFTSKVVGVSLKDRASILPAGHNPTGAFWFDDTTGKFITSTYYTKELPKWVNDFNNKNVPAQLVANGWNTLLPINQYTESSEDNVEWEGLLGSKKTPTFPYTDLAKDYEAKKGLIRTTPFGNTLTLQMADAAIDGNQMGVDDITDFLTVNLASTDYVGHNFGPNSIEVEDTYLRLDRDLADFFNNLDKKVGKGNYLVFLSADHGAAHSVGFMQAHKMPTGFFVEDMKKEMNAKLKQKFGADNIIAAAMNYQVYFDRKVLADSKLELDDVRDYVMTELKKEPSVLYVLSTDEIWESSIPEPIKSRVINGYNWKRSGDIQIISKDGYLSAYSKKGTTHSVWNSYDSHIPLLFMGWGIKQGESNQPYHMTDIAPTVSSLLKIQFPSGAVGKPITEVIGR
Change,target,assay,system,conditions,how to read,measurement,value
F328V,"tungstate, free oxyanion",microfluidic competitive inhibition,"in vitro, cell-free expressed","not given, derived from inhibition constants, unchanged parent 2230 nM",lower = stronger binding,oxyanion analog dissociation constant,2 µM

# A few entries again (series 2):
Change,normalised enrichment score
G9C,0.249
F8C,-0.188
S2C,-0.0111
D12Q,0.416
